Published values gathered from unrelated publications.
Protocols differ between the studies behind these lines. “And” joins repeats or separate records; there may be more than shown. Numbers after ± are the reported error.
UniProt Q9BZL6, sequence (whole entry, looked up): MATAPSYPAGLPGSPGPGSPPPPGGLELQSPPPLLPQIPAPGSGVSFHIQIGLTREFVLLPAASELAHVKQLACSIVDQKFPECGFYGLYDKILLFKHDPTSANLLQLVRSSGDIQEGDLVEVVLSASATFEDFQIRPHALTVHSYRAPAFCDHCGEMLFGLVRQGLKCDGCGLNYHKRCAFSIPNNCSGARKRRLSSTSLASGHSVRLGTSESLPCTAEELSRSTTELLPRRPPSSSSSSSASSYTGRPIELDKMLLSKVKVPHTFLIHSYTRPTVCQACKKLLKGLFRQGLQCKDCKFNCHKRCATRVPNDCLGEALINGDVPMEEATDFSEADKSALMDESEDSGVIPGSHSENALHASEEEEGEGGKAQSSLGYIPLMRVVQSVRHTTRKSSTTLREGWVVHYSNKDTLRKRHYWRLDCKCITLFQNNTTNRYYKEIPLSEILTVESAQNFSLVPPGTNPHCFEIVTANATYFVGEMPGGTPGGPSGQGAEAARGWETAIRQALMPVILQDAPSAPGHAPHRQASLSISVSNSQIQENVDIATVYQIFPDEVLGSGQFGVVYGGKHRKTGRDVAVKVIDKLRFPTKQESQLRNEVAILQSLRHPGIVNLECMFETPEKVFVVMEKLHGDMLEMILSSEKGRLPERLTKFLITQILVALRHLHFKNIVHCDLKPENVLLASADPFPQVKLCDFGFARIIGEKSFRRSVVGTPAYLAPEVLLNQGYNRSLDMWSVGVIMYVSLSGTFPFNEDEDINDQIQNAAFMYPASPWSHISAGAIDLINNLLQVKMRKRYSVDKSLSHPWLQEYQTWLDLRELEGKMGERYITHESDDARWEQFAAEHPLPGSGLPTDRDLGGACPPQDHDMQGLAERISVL
UniProt Q9NPD5, sequence (whole entry, looked up): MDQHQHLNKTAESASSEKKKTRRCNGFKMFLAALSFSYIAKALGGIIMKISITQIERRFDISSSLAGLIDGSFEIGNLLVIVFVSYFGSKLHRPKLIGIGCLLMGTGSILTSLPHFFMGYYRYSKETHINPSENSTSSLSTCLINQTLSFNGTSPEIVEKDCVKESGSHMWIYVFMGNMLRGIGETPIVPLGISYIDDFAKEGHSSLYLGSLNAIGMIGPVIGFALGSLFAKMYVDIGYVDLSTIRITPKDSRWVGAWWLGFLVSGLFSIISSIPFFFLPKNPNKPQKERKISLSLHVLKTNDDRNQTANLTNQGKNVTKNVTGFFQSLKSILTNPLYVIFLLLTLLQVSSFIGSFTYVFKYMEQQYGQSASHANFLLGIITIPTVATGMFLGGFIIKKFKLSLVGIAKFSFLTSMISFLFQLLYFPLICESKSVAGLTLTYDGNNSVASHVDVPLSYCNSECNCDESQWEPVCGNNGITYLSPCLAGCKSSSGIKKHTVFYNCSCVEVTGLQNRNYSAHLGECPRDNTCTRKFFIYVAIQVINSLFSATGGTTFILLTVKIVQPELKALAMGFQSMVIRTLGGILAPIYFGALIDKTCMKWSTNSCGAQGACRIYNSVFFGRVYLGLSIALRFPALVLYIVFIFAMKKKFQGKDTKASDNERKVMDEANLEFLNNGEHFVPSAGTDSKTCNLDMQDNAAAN
UniProt Q15139, sequence (whole entry, looked up): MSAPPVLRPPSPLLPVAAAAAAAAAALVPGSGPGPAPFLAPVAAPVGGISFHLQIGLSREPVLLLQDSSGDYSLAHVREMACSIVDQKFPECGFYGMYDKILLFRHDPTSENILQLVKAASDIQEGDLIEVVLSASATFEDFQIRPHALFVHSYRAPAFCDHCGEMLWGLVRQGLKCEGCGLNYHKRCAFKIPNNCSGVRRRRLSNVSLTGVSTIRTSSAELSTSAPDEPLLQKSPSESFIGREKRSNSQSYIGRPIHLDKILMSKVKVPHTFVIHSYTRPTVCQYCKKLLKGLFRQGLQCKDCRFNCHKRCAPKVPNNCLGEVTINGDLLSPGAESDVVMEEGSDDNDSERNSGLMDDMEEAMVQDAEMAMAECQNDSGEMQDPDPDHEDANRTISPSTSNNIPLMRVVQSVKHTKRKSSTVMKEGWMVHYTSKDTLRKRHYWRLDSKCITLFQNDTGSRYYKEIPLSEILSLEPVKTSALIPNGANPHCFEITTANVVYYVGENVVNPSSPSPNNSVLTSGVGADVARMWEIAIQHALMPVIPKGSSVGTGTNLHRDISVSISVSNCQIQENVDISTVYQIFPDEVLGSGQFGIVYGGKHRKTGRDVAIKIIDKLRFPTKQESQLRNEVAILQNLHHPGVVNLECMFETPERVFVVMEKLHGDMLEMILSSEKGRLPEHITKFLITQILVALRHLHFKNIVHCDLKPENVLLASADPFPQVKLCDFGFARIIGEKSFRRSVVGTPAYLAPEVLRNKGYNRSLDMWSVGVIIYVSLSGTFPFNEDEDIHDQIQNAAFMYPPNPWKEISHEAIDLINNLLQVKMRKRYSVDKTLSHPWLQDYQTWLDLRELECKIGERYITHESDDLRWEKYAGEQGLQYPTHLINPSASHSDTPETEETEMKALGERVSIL

SMILES | target or system | test | system | setting | how to read | measurement | value
Cc1cc(-c2ccc3ccccc3c2)nnc1NCCN1CCN(C)CC1 | – | metabolic stability | rat, liver microsomes | 10 min | – | compound remaining | 92.7%
COc1ccccc1-c1n[nH]c2nc(NC3CCN(C(=O)Cc4ccc(F)cc4F)CC3)ncc12 | – | bead binding, competition bead pull-down, measured: LINJ.31.2210 | Leishmania donovani extract | 10 µM | relative to: vehicle | relative abundance | 0.9
CCc1nn(C)c2nc(-c3ccc(C(=O)O)cc3)nc(NCc3ccccc3)c12 | – | – | NSG mice | dose not given, day 3 | – | body weight | 21.7 g and 20.3 g and 22.8 g and 20.2 g
CC(C)[C@@H]1NC(=O)CNC(=O)[C@H](CC(N)=O)NC(=O)[C@H](CCCNC(=N)N)NC(=O)[C@H](Cc2ccc(O)cc2)NC(=O)[C@H](C(C)C)NC(=O)[C@@H](NC(=O)[C@@H](NC(=O)[C@H](CC(N)=O)NC(=O)[C@H](Cc2c[nH]c3ccccc23)NC(=O)[C@H](C)NC(=O)[C@H](Cc2ccccc2)NC(=O)CNC(=O)[C@H](CCCCN)NC(=O)[C@H](Cc2ccccc2)NC(=O)[C@H](Cc2ccccc2)NC(=O)[C@H](CCCCN)NC(=O)OCC2c3ccccc3-c3ccccc32)C(C)C)CSSC[C@@H](C(=O)N[C@@H](Cc2c[nH]cn2)C(=O)N[C@@H](CCCNC(=N)N)C(=O)N[C@@H](CCCNC(=N)N)C(=O)N[C@@H](C)C(=O)N[C@@H](CC(N)=O)C(N)=O)NC(=O)[C@H](C(C)C)NC(=O)[C@H](CCCNC(=N)N)NC1=O | – | – | ICR mouse, blood | intramammary, 5 mg/kg, day 5, 3 d dosing | – | basophils | 1.55 ± 0.24%
Cc1nc2cccc(OCC(C)(C)C(=O)NC(C)C)c2c(N)c1C(=O)[O-].[Na+] | Salmonella typhimurium | – | TA100 | 0.13 mg per plate, without S9, preincubation | – | revertant colonies per plate | 132 ± 3
CC(C)(CCCC/C=C/CCCCCC(C)(C)C(=O)O)C(=O)O | – | – | ICR mice, both sexes | oral, dose not given, 5 h | – | plasma concentration | 12500 ng/mL
Oc1c(Br)cc(Br)c2nc3ccc(C(F)(F)F)cc3nc12 | – | haemolysis | – | 200 µM | – | haemolysis | ≤ 1%
CCN(CCCCOc1ccc(CCC(=O)N2CCC(Cc3ccccc3)CC2)cc1OC)Cc1ccccc1 | – | – | Sprague-Dawley rats, both sexes, urine | oral gavage, 25 mg/kg, 0 to 6 h | – | excreted amount | 2020 ± 352 ng
CN1Cc2cc(Cl)ccc2-n2c(nnc2C2CCN(c3cccc([18F])n3)CC2)C1 | – | – | C57BL/6 mouse male, stomach | intravenous, dose not given, 5 min, added: blocking agent 10 mg/kg | – | tissue uptake | 10.3 ± 3.12 %ID/g
CC[C@H](C)[C@H](NC(=O)[C@H](CCCCN)NC(=O)CNC(=O)[C@H](CC(C)C)NC(=O)[C@H](Cc1ccccc1)NC(=O)[C@H](CCCCN)NC(=O)[C@H](CO)NC(=O)[C@H](Cc1ccccc1)NC(=O)[C@H](Cc1c[nH]c2ccccc12)NC(=O)[C@H](CCC(N)=O)NC(=O)[C@@H](NC(=O)[C@H](Cc1ccccc1)NC(=O)CCCCCNC(=O)CN1CCN(CC(=O)O)CCN(CC(=O)O)CCN(CC(=O)O)CC1)C(C)C)C(=O)N[C@@H](CCC(=O)O)C(=O)N1CCC[C@H]1C(=O)N[C@@H](CC(=O)O)C(=O)N[C@H](C(=O)N[C@@H](CO)C(=O)N[C@@H](CCC(N)=O)C(=O)N[C@H](C(=O)N[C@@H](CCC(N)=O)C(=O)N[C@@H](CC(=O)O)C(=O)N1CCC[C@H]1C(=O)N[C@@H](CC(N)=O)C(=O)N[C@@H](CC(=O)O)C(=O)N[C@@H](CCC(N)=O)C(=O)N[C@@H](Cc1ccc(O)cc1)C(=O)N[C@@H](CCC(=O)O)C(=O)N1CCC[C@H]1C(=O)N[C@@H](Cc1ccccc1)C(=O)O)C(C)C)C(C)C [copper-64 labelled] | – | – | BALB/c mice, male, CT26 tumour-bearing, pancreas | 2 h, anti-PD1 plus anti-CTLA4 treated | – | tissue uptake | 1.07 ± 0.4 %ID/g
CC(C)C[C@H](NC(=O)CNC(=O)[C@H](CCC(N)=O)NC(=O)[C@H](CC(C)C)NC(=O)[C@H](CC(C)C)NC(=O)[C@H](CCCNC(=N)N)NC(=O)[C@H](CCC(N)=O)NC(=O)[C@H](CC(C)C)NC(=O)[C@H](CCCNC(=N)N)NC(=O)[C@H](C)NC(=O)CNC(=O)[C@H](CCC(=O)O)NC(=O)[C@H](CCCNC(=N)N)NC(=O)[C@H](CC(C)C)NC(=O)[C@H](CCCNC(=N)N)NC(=O)[C@H](CO)NC(=O)[C@H](CC(C)C)NC(=O)[C@H](CCC(=O)O)NC(=O)[C@H](CO)NC(=O)[C@@H](NC(=O)[C@H](Cc1ccccc1)NC(=O)[C@@H](NC(=O)CNC(=O)[C@H](CC(=O)O)NC(=O)C(C)(C)NC(=O)[C@@H](N)Cc1c[nH]cn1)[C@@H](C)O)[C@@H](C)O)C(=O)N[C@@H](CC(C)C)C(=O)N[C@@H](CCC(N)=O)C(=O)NCC(=O)N[C@@H](CC(C)C)C(=O)N[C@H](C(=O)NCC(=O)N[C@@H](CCCCNC(=O)COCCOCCNC(=O)COCCOCCNC(=O)CC[C@H](NC(=O)CCCCCCCCCCCCCCCCC(=O)O)C(=O)O)C(N)=O)C(C)C | – | – | DIO C57BL/6J mice | sc, 300 nmol/kg twice daily, 8 days | relative to: vehicle | plasma lipase | no effect
CCn1ccc(-c2cc(-c3cnn(C)c3)cc([C@@H](C)NC(=O)c3cc(OCCN(C)C)ccc3C)c2)n1 | – | – | C57BL/6J mice, male, plasma | iv, 10 mg/kg | – | clearance | 26.8 mL/min/kg
C/C(=N\OCCCN1CCCCC1)c1ccc(C(F)(F)F)cc1 | – | – | C57BL/6 mouse, brain | intravenous, 5 mg/kg, 0.5 h | – | brain concentration | 9730 ± 377 ng/g
O=C1NC2(CC2)COc2ncc(F)cc2[C@H]2COCCN2c2ccn3ncc1c3n2 | – | – | Sprague-Dawley rat, female, serum | oral, 10 mg/kg/day, 4 weeks daily, end of treatment | – | gamma-glutamyltransferase activity | 0.5 ± 0.3 U/L
CS(C)(=O)=Nc1ccc(-c2ccc(-c3nc4cc(O[C@@H]5CO[C@H]6[C@@H]5OC[C@H]6O)[nH]c4cc3F)cc2)cc1 | Serine/threonine-protein kinase D1 (PRKD1, Homo sapiens, UniProt Q15139) | enzyme activity, inhibitor | – | 10 µM | – | inhibition | 13%
CCCCCCCCCCCC(=O)C(C)C(=O)N1CCC[C@H]1C(=O)NC(C)(C)C(=O)NC(C)(C)C(=O)NC(C)(C)C(=O)N[C@](C)(CC)C(=O)NCCC(=O)N[C@@H](C)C(=O)N[C@](C)(CC)C(=O)N[C@@H](C)C(=O)N[C@@H](CC(C)C)C(=O)N[C@](C)(CC)C(=O)NCCC(=O)N[C@@H](C)C(=O)N[C@](C)(CC)C(=O)NCCC(=O)N[C@@H](C)C(=O)NC(C)(C)C(=O)NC(C)(C)C(=O)NC(C)(C)C(=O)N[C@@H](C)C(=O)N[C@@H](CC(=O)O)C(=O)O (stereo partly shown) | – | LC-MS | buffer with trypsin | 40 µM, 20 min, pH 7.5, 37 °C | relative to: 0 h | remaining intact peptide | 84.1% and 99.2% and 93.1%
CN(C)[C@H]1C[C@@]23CC[C@@]4(O2)C(=CC[C@]2(C)[C@@H](c5ccc6ccncc6c5)CC[C@H]24)C=C3[C@@H](O)[C@@H]1O | Serine/threonine-protein kinase D2 (PRKD2, Homo sapiens, UniProt Q9BZL6) | ATP probe labelling, inhibitor, KiNativ profiling | – | 0.1 µM | – | inhibition | 3.5%
CC(=O)NCCCC[C@@H]1NC(=O)[C@H](Cc2c[nH]c3c(C)cccc23)NC(=O)[C@H]([C@@H](C)O)NC(=O)[C@H](CC(N)=O)NC(=O)[C@@H](NC(C)=O)C(C)(C)SSC(C)(C)[C@@H](C(=O)N[C@@H](Cc2ccc(OCCN)cc2)C(=O)N[C@@H](Cc2ccc3ccccc3c2)C(=O)NC2(C(=O)N[C@@H](CCC(=O)O)C(=O)N[C@@H](CC(N)=O)C(=O)N[C@@H](Cc3cccnc3)C(=O)N(C)CC(N)=O)CCOCC2)NC1=O | Solute carrier organic anion transporter family member 1B3 (SLCO1B3, Homo sapiens, UniProt Q9NPD5) | substrate | HEK293 expressing SLCO1B3 | 5 µM, 30 min | – | uptake rate | 0.0746 ± 0.0087 pmol/mg/min
CC(C)(C)C(=O)OCOP(=O)(OCOC(=O)C(C)(C)C)C1CCCN(O)C1=O (stereo not shown) | Malme-3M | – | – | – | – | log LC50 | > -4 log M

Repeated from above:
SMILES | target or system | test | system | setting | how to read | measurement | value
CC(C)(CCCC/C=C/CCCCCC(C)(C)C(=O)O)C(=O)O | – | – | ICR mice, both sexes | oral, dose not given, 5 h | – | plasma concentration | 12500 ng/mL
